Assay results collected from several papers.
Lines come from different studies, so protocols differ. ± marks the error that the study gave.

CC(=O)c1sc(NN=C2c3ccccc3-c3nc4cc(F)ccc4nc32)nc1C — blood glucose (mice with STZ-induced diabetes; oral, 25 mg/kg, 288 h, day 12): 215 ± 9.97 mg/dL
SIYNFEKL — IL-2+ IFN-γ+ cells (flow cytometry, measured: CD44hi CD8+ T cells; peptide, OT-I CD8+ T cells, mouse; dose not given, primed 5 days, restimulated 100 ng/mL OVA257, added: no TGF-β1): 17.9%
Cc1ccc(S(=O)(=O)NC(=O)NN2CC3CCCC3C2)cc1 (stereo not shown) — blood glucose (mice with STZ-induced diabetes; oral, 25 mg/kg, 288 h, day 12): 132 ± 3.7 mg/dL
Cc1ccc2cc3ccc4ccccc4c3cc2c1 — minimal protective dose (adrenal haemorrhage prevention; rat; oral, added: 7,12-DMBA 5 mg i.v.): 0.5 mg
COc1c(C)c(C)c2c(c1C)CCC(C)(C(=O)NN=C1C(=O)Nc3ccc(Br)cc31)O2 (stereo not shown) — minimal effective dose (seizure protection; male CF-1 mice; intraperitoneal, 0.5 h, added: pentylenetetrazole 60 mg/kg subcutaneous): 30 mg/kg
C[n+]1cccc2c(N)cccc21 — body weight gain (mouse, diet-induced obese (high-fat diet); subcutaneous, 10 mg/kg/day once daily, at termination): 5.2 g
Cc1c(C)c2c(c(C)c1O)CCC(C)(C(=O)NN=C1C(=O)N(C)c3cc(Cl)ccc31)O2 (stereo not shown) — minimal effective dose (seizure protection; male CF-1 mice; intraperitoneal, 4 h, added: pentylenetetrazole 60 mg/kg subcutaneous): 100 mg/kg
COc1ccc2c(c1)c(CC(=O)O)c(C)n2C(=O)c1ccc(Cl)cc1 — cytokine level (multiplex bead immunoassay, measured: IL-17; CD-1 mice, serum; ip, 20 mg/kg, three-injection regimen, added: LPS 3 mg/kg): 0.8 ± 0.8 pg/mL
insulin — 18F-FDG SUV slope (PET imaging; CD IGS rat, ipsilateral lateral gastrocnemius; intra-arterial (left femoral), 0.34-0.346 IU/kg, 20 to 60 min): 0.0066 ± 0.0017
CC(=O)c1sc(N=C2c3ccccc3-c3nc4cc(F)ccc4nc32)nc1C — blood glucose (mice with STZ-induced diabetes; oral, 25 mg/kg, 288 h, day 12): 300 ± 18.2 mg/dL
CN(C)C(=N)N=C(N)N — infarct volume (male Wistar rat, MCAO; oral, 200 mg/kg once daily, 7 days before, read 48 h after MCAO, added: liraglutide 1 mg/kg s.c. + empagliflozin 2 mg/kg; relative to: brain volume): 8.67%
CCc1cc(-c2noc(-c3cc(OC)nc(C4CCCC4)c3)n2)cc(C)c1OC[C@@H](O)CO — minimal effective plasma concentration (lymphocyte count reduction; Wistar rats, plasma; oral): ~132 nM
Cc1c(C)c2c(c(C)c1OCc1ccccc1)CCC(C)(C(=O)NN=C1C(=O)N(C)c3ccccc31)O2 (stereo not shown) — minimal effective dose (seizure protection; male CF-1 mice; intraperitoneal, 4 h, added: pentylenetetrazole 60 mg/kg subcutaneous): 100 mg/kg
Cc1cc(C(=O)/C(=C\c2ccc(C)c(Cl)c2)c2ccc(C)c(Cl)c2)c(C(=O)N2CCCCC2)c(=O)[nH]1 — IC50 (cell proliferation, MTT; 35404 melanoma brain metastasis, human patient-derived; 72 h, tested up to 10 µM): 400 to 4300 nM
Cc1ccc(C(=O)NC2CC2)cc1-n1ncc(C(=O)c2cccc(C#N)c2)c1N — IC50 (LPS-induced TNFα secretion, inhibitor; healthy human, peripheral blood ex vivo; total plasma concentration): 115 nM
CCN(O)N=Nc1ccc(S(=O)(=O)Nc2cc(C)on2)cc1 — inhibition (paw oedema; rat, carrageenan oedema; oral, 100 mg/kg, 2 h after carrageenan; relative to: vehicle): 41.1%
AGEDPHGYFLPGQFA — inhibition (IL-12p40 expression; peptide, peritoneal macrophages, C57BL/6 mouse; 1 pM, 15 h, pretreated 1 h, added: LPS 100 ng/ml + IFN-γ 20 ng/ml): 47%
Polymyxin B — IL-1β release (human whole blood; 500 ng/mL, 4 h, 37 °C, added: E. coli LPS 0.5 ng/mL; relative to: LPS without compound): 10.2 ± 5.5%
NCCCC[C@@H]1NC(=O)[C@@H](Cc2c[nH]c3ccccc23)NC(=O)[C@H](c2ccccc2)NC(=O)[C@@H]2C[C@@H](OC(=O)NCCN)CN2C(=O)[C@H](Cc2ccccc2)NC(=O)[C@H](Cc2ccc(OCc3ccccc3)cc2)NC1=O — GH AUC(0-2h) change (GHRH-stimulated GH secretion; healthy human volunteers; subcutaneous, 10 µg, added: GHRH 1 µg/kg; relative to: pre-dose baseline): 1%
CC[C@H](C)[C@@H]1NC(=O)[C@H](CCCNC(=N)N)NC(=O)[C@H](CC(=O)O)NC(=O)[C@H](CC(C)C)NC(=O)[C@H](CCCCN)NC(=O)[C@H](CC(C)C)NC(=O)CNC(=O)[C@H](Cc2ccccc2)NC(=O)[C@@H](NC(=O)CNC(=O)[C@H](CCCCN)NC(=O)[C@H](CO)NC(=O)[C@H](CC(C)C)NC(=O)CNC(=O)[C@H](CCCCN)NC(=O)[C@H](CCCCN)NC(=O)[C@H](CC(N)=O)NC(=O)[C@H](C)NC(=O)CNC(=O)[C@H](CCCCN)NC(=O)[C@H](Cc2ccc(O)cc2)NC(=O)[C@H](CCCCN)NC(=O)[C@H](CCCNC(=N)N)NC(=O)[C@H](C)NC(=O)[C@H](CC(N)=O)NC(=O)[C@@H]2CCCN2C(=O)[C@H](Cc2c[nH]cn2)NC(=O)[C@H](CCC(=O)O)NC(=O)[C@H](CCC(N)=O)NC(=O)CNC(=O)[C@@H]2CCCN2)CSSC[C@@H](C(=O)O)NC(=O)CNC(=O)[C@H](CC(C)C)NC(=O)CNC(=O)[C@H](CO)NC(=O)[C@H](CCSC)NC(=O)[C@H](CO)NC(=O)CNC1=O — Emax (measured: collagen type X marker; human patients with achondroplasia, serum; day 10 to 183, sigmoid Emax vs Cmax): 3690 pg/mL
Cc1c2ccccc2cc2c1ccc1ccccc12 — minimal protective dose (adrenal haemorrhage prevention; rat; oral, added: 7,12-DMBA 5 mg i.v.): 0.5 mg
Cc1ccc(N(O)N=Nc2ccc(S(=O)(=O)Nc3cc(C)on3)cc2)cc1 — inhibition (paw oedema; rat, carrageenan oedema; oral, 100 mg/kg, 4 h after carrageenan; relative to: vehicle): 88.6%
insulin human — maximum plasma glucose (STZ-diabetic Sprague-Dawley rat; intravenous infusion, 20 + 10 pmol/kg/min, glucose tolerance test): 15.1 ± 0.7 mM
O=C1N=C(NN=C2C(=O)Nc3ccccc32)SC1=C1c2ccccc2-c2nc3cc(F)ccc3nc21 — blood glucose (mice with STZ-induced diabetes; oral, 25 mg/kg, 144 h, day 6): 240 ± 54.2 mg/dL
COc1c(C)c(C)c2c(c1C)CCC(C)(C(=O)NN=C1C(=O)Nc3cc(Cl)ccc31)O2 (stereo not shown) — minimal effective dose (seizure protection; male CF-1 mice; intraperitoneal, 4 h, added: maximal electroshock): 300 mg/kg
C[C@H](NC(=O)c1c(N)nn2cccnc12)c1cc2cccc(C#Cc3cnn(C)c3)c2c(=O)n1-c1ccccc1 — time to partial response (RECIST; human; 20 mg): 11.1 months
Cc1c(C)c2c(c(C)c1O)CCC(C)(C(=O)NN=C1C(=O)Nc3ccc(F)cc31)O2 (stereo not shown) — minimal effective dose (seizure protection; male CF-1 mice; intraperitoneal, 4 h, added: pentylenetetrazole 60 mg/kg subcutaneous): 300 mg/kg
COc1ccnc(C[S+]([O-])c2nc3ccc(OC(F)F)cc3[nH]2)c1OC (stereo not shown) — intragastric pH (human ultra-rapid metabolizer; 40 mg/day, day 6, 5 days dosing): 1.2
O=S(=O)(Nc1nccs1)c1ccc(N=NN(O)c2ccccc2)cc1 — inhibition (paw oedema; rat, carrageenan oedema; oral, 100 mg/kg, 2 h after carrageenan; relative to: vehicle): 17.4%
human insulin — peak postprandial glucose (type 1 diabetes patients, blood; dose not given, added: liquid meal 60 g carbohydrate): 190 mg/dL
Cc1ccc(C(=O)Nc2ccnc(S(N)(=O)=O)c2)c(N2CCCC(F)(F)CC2)n1 — IC50 (capsaicin-induced flinching, inhibitor; humanized NaV1.8 rats, unbound plasma concentration; relative to: vehicle): 6.78 nM
AQAGEDPHGYFLPGQFAFS — optimal dose (cytokine expression suppression; peptide, mouse peritoneal macrophages, C57BL/6 mice; 1 h pretreatment, added: LPS/IFN-γ 15 h): 100 pM
[2H]c1c([2H])c([2H])c2c(C([2H])([2H])[2H])c3c(c([2H])c([2H])c4c([2H])c([2H])c([2H])c([2H])c43)c(C([2H])([2H])[2H])c2c1[2H] — minimal protective dose (adrenal haemorrhage prevention; rat; oral, added: 7,12-DMBA 5 mg i.v.): 2 mg
TLQPPASSRRRHFHAALPPAR — contractile activity (peptide, rat stomach fundus strips; 3 µM; relative to: TLQP-21): 84 ± 10%
CC1(C)CCC(CN2CCN(c3ccc(C(=O)NS(=O)(=O)c4ccc(NCC5CCOCC5)c([N+](=O)[O-])c4)c(Oc4cnc5[nH]ccc5c4)c3)CC2)=C(c2ccc(Cl)cc2)C1 — EC50 (cell kill, PI exclusion flow cytometry; CD21+ nodal neoplastic cells, human): > 5000 nM
CS/C(S)=N/CCCC[S+](C)[O-] (racemic) — mRNA fold change (RT-PCR, measured: Arnt; rat, colon; oral gavage, 200 mg/kg, 96 h, dosed for four days; relative to: vehicle): 2.52
O=C1NC(=O)C(c2ccccc2)(c2ccccc2)N1 — minimal effective dose (seizure protection; male CF-1 mice; intraperitoneal, 4 h, added: maximal electroshock): 30 mg/kg
insulin detemir — glucose infusion rate AUC (euglycaemic glucose clamp; type 2 diabetic patients; subcutaneous, 0.4 U/kg, 0 to 32 h, after 1 week bedtime dosing): 1080 ± 785 mg/kg
Cc1cccc(N(O)N=Nc2ccc(S(=O)(=O)Nc3cc(C)on3)cc2)c1 — inhibition (paw oedema; rat, carrageenan oedema; oral, 100 mg/kg, 4 h after carrageenan; relative to: vehicle): 71.4%
Cn1cnc2c(F)c(Nc3ccc(Br)cc3Cl)c(C(=O)NOCCO)cc21 — patients with p-ERK inhibition (immunohistochemistry; cancer patients; dose not given, threshold 30%, alone or with cyclosporin A): 46.6%
Cc1ccc(-c2nn(-c3ccccc3)cc2C=NNC2=NC(=O)C(=C3c4ccccc4-c4nc5cc(F)ccc5nc43)S2)cc1 — blood glucose (mice with STZ-induced diabetes; oral, 25 mg/kg, 288 h, day 12): 252 ± 60.8 mg/dL
SIIVFEKL — IL-2+ IFN-γ+ cells (flow cytometry, measured: CD44hi CD8+ T cells; peptide, OT-I CD8+ T cells, mouse; dose not given, primed 5 days, TGF-β1 from day 2 onward, added: 20 ng/mL TGF-β1): 2.54%
COc1ccc2c(c1)CC[C@H](CN(C)CC(=O)O)[C@@H]2c1ccccc1 — basal dopamine level (rat, prefrontal cortex microdialysate; oral gavage, 10 mg/kg/day, 2 weeks): 0.47 ± 0.27 pg/10 µL
CCCC(CCC)C(=O)O — minimal effective dose (seizure protection; male CF-1 mice; intraperitoneal, 0.5 h, added: pentylenetetrazole 60 mg/kg subcutaneous): 200 mg/kg
C[C@H](CS)C(=O)N1CCC[C@H]1C(=O)O — Aβ degradation (inhibitor; mouse microglia conditioned medium; concentration not given, added: Aβ1-42 1 µg/mL; relative to: vehicle): no effect
CCC(=O)N1CCC(NC(=O)Nc2ccc(OC(F)(F)F)cc2)CC1 — mechanical withdrawal threshold (von Frey; Sprague-Dawley rat, streptozotocin diabetic; intraperitoneal, 3 mg/kg, 60 min): 77.7 ± 1.1 g
Cc1c(C)c2c(c(C)c1OCc1ccccc1)CCC(C)(C(=O)NN=C1C(=O)Nc3ccccc31)O2 (stereo not shown) — minimal effective dose (seizure protection; male CF-1 mice; intraperitoneal, 0.5 h, added: pentylenetetrazole 60 mg/kg subcutaneous): 30 mg/kg
CC(C)C[C@H](NC(=O)[C@H](CO)NC(=O)[C@H](CCCNC(=N)N)NC(=O)[C@H](CC(=O)O)NC(=O)[C@H](CCC(=O)O)NC(=O)[C@H](C)NC(=O)[C@@H]1CCCN1C(=O)[C@H](C)NC(=O)[C@H](CCC(=O)O)NC(=O)[C@@H]1CCCN1C(=O)[C@@H]1CCCN1)C(N)=O — HVA level (HPLC-EC; F344 rat, normal, striatum; intranasal, 1000 µg, 5 days/week for 3 weeks): 658 ± 60 ng/g
Cc1cc(C)c(/C=C2\C(=O)Nc3ccccc32)[nH]1 — tumour volume (MRI; human; dose not given, 1.3 months): 95.3 cm³

A few entries again:
insulin detemir — glucose infusion rate AUC (euglycaemic glucose clamp; type 2 diabetic patients; subcutaneous, 0.4 U/kg, 0 to 32 h, after 1 week bedtime dosing): 1080 ± 785 mg/kg
CC(=O)c1sc(N=C2c3ccccc3-c3nc4cc(F)ccc4nc32)nc1C — blood glucose (mice with STZ-induced diabetes; oral, 25 mg/kg, 288 h, day 12): 300 ± 18.2 mg/dL
SIYNFEKL — IL-2+ IFN-γ+ cells (flow cytometry, measured: CD44hi CD8+ T cells; peptide, OT-I CD8+ T cells, mouse; dose not given, primed 5 days, restimulated 100 ng/mL OVA257, added: no TGF-β1): 17.9%
CCc1cc(-c2noc(-c3cc(OC)nc(C4CCCC4)c3)n2)cc(C)c1OC[C@@H](O)CO — minimal effective plasma concentration (lymphocyte count reduction; Wistar rats, plasma; oral): ~132 nM
CCN(O)N=Nc1ccc(S(=O)(=O)Nc2cc(C)on2)cc1 — inhibition (paw oedema; rat, carrageenan oedema; oral, 100 mg/kg, 2 h after carrageenan; relative to: vehicle): 41.1%
O=C1NC(=O)C(c2ccccc2)(c2ccccc2)N1 — minimal effective dose (seizure protection; male CF-1 mice; intraperitoneal, 4 h, added: maximal electroshock): 30 mg/kg
